Experimental data pooled from the literature.
Lines come from different studies, so protocols differ. Values joined by “and” are separate records of one study, mostly repeats; a detail may differ. ± marks the error that the study gave.
UniProt Q8NEW0, sequence (whole entry, looked up): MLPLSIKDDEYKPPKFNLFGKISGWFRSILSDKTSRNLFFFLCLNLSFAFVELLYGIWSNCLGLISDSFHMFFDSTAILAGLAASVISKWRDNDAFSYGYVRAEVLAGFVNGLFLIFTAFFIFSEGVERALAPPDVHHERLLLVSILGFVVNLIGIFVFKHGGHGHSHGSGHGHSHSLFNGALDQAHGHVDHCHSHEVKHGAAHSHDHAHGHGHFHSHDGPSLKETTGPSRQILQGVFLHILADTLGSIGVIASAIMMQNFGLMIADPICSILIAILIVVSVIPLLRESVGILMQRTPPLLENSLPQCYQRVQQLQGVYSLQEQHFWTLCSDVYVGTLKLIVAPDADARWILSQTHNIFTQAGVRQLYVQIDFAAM

Structure (SMILES)	target or system	assay	test system	setting	scale	quantity	result
CN1CCN(C2(CNC3CCN(c4cccc(-c5cc6cc(F)ccc6[nH]5)c4)CC3)CCC2)CC1	SR	–	–	–	–	GI50	0.19 µM
CC(c1ccccc1)(c1ccc(O)cc1)c1ccc(O)cc1	HepG2 spheroids	Hoechst flow cytometry	–	40 µM, 24 h	–	G1 phase cells	73.9 ± 4.49%
CC1=C(O)C(=O)C=C2C1=CC=C1[C@@]2(C)CC[C@@]2(C)[C@@H]3C[C@](C)(C(=O)O)CC[C@]3(C)CC[C@]12C	iPSC-derived cardiomyocytes	concentration-response curve, item: MyBP-C/MYH ratio	–	24 h	–	EC50	7 µM
C[C@H]1CN(c2n[nH]c3nc(N[C@H]4CC[C@H](NS(=O)(=O)CCC(F)(F)F)CC4)ncc23)CCO1	Zinc transporter 7 (Homo sapiens, UniProt Q8NEW0)	Kinobeads competition, item: SLC30A7	–	0.032 µM, unit not given	relative to: vehicle	remaining binding	1.14
COc1cc(CCC[P+](c2ccccc2)(c2ccccc2)c2ccccc2)c(OC)c2c1OCO2.[I-]	SK-OV-3	SRB	–	–	–	TGI	-5.19 log M
C[C@]12CC[C@H](O)C[C@H]1CC[C@@H]1[C@@H]2CC[C@]2(C)[C@@H](c3ccc(=O)oc3)CC[C@]12O	MCF7	RT-qPCR, item: PGR	–	20 nM, 48 h, unit not given, together with: estradiol	relative to: untreated	mRNA level	2.17 and 2.2 and 1.68
O=C(Nc1ccc2[nH]nc(-c3ccncc3)c2c1)[C@@H]1CCN(CC(=O)N2CCN(c3ccc(-c4ncccn4)cc3)CC2)C1	HCT116	IncuCyte	–	concentration not given, 12 (unit not given)	–	PI-positive cells	2.58 count and 3.17 count and 4.25 count
O=C1N(Cc2ccccc2Cl)c2ccccc2C12NN=C(c1ccccc1)S2 (stereo not shown)	MDA-MB-468	gene expression array, item: DDX1 mRNA	–	10 µM, 12 h	relative to: untreated, down	fold change	1.51
Cn1cncc1C1=CN(c2ncnc3[nH]cnc23)CCS1	SK-OV-3	–	–	ovarian cancer	–	CC50	> 200 µM
CC(C)N1CCC(NC2CCN(c3cccc(-c4cc5cc(F)ccc5[nH]4)c3)CC2)CC1	SNB-75	–	–	–	–	CC50	5.51 µM
CCN(CC)c1ccc(C=NNC(=O)CSc2nc3ccccc3c(=O)n2Cc2ccc(S(N)(=O)=O)cc2)c(O)c1	IGROV-1	NCI five-dose screen	–	–	–	CC50	> 100 µM
N.N.[Cl][Pt][Cl]	NCI-H82	PI flow cytometry	–	10 µM, 24 h	–	cells in S phase	37%
C=C1C(=O)O[C@H]2C[C@@]3(C)O[C@@H]3CC/C(C)=C/[C@@H](OC(C)=O)[C@H]12	iPSC-derived cardiomyocytes	concentration-response fit	–	concentration not given	relative to: vehicle	fitted top MyBP-C level	100%
Nc1ncc(-c2nc(N3CCOCC3)nc(N3CCOCC3)n2)c(C(F)F)n1	A498	–	–	72 h	–	GI50	0.041 µM
CC[C@H](C)[C@H](NC(=O)[C@H](Cc1ccccc1)NC(=O)[C@H](CCC(=O)O)NC(=O)[C@H](CCCNC(=N)N)NC(=O)[C@H](C)NC(=O)[C@H](C)NC(=O)[C@H](CCC(N)=O)NC(=O)[C@H](CCC(=O)O)NC(=O)[C@H](CCC(=O)O)NC(=O)[C@H](CC(C)C)NC(=O)[C@H](Cc1ccc(O)cc1)NC(=O)[C@H](CO)NC(=O)[C@H](CO)NC(=O)[C@@H](NC(=O)[C@H](CC(=O)O)NC(=O)[C@H](CO)NC(=O)[C@@H](NC(=O)[C@H](Cc1ccccc1)NC(=O)[C@@H](NC(=O)CNC(=O)[C@H](CCC(=O)O)NC(=O)[C@H](C)NC(=O)CCc1c[nH]cn1)[C@@H](C)O)[C@@H](C)O)C(C)C)C(=O)N[C@@H](C)C(=O)N[C@@H](Cc1c[nH]c2ccccc12)C(=O)N[C@@H](CC(C)C)C(=O)N[C@H](C(=O)N[C@@H](CCCNC(=N)N)C(=O)NCC(=O)N[C@@H](CCCNC(=N)N)C(=O)N[C@@H](CCCCNC(=O)COCCOCCNC(=O)COCCOCCNC(=O)CC[C@H](NC(=O)CCCCCCCCCCCCCCCCC(=O)O)C(=O)O)C(=O)NCC(=O)NCC(=O)N[C@@H](CO)C(=O)N[C@@H](CCCCNc1c(NCCCCCN(O)C(=O)CCC(=O)NCCCCCN(O)C(=O)CCC(=O)NCCCCCN(O)C(C)=O)c(=O)c1=O)C(=O)O)C(C)C [zirconium-89 labelled]	–	–	rat, pancreas	sc, 3 nmol/kg, 4 h, ex vivo	–	tissue uptake	0.13 %ID/g
Oc1cc(Cl)ccc1Oc1ccc(Cl)cc1Cl	HepG2	protein level, item: TNFAIP3 (A20)	–	1 h	–	representative mode point of departure	28.8 µM
O=C(O)c1ccc(/C=C2\SC(=S)N(c3cccc(C(F)(F)F)c3)C2=O)cc1	FRT cells expressing human WT CFTR	short-circuit current	–	20 µM, together with: forskolin 20 µM	–	CFTR current inhibition	inhibited
COc1ccc(S(=O)(=O)Nc2ccc3oc(-c4ccc(NS(=O)(=O)c5cc(F)ccc5OC)cc4)nc3c2)cc1	DLD-1 colorectal cancer	–	–	48 h	–	EC50	15 to 18 µM
CC[C@H](C)[C@@H]([C@@H](CC(=O)N1CCC[C@H]1[C@H](OC)[C@@H](C)C(=O)N[C@@H](Cc1ccccc1)C(=O)O)OC)N(C)C(=O)[C@@H](NC(=O)[C@H](C(C)C)N(C)C(=O)CCSSC[C@H](NC(=O)[C@@H](NC(=O)CNC(=O)[C@H](CCC(=O)O)NC(=O)[C@H](CC(=O)O)NC(=O)[C@H](C)NC(=O)[C@H](CC(=O)O)NC(=O)[C@@H](NC(=O)[C@H](CC(C)C)NC(=O)[C@H](CC(C)C)NC(=O)[C@H](C)NC(=O)[C@H](CC(C)C)NC(=O)[C@H](CC(=O)O)NC(=O)[C@H](CC(C)C)NC(=O)[C@H](CC(C)C)NC(=O)[C@H](CC(C)C)NC(=O)[C@H](CC(C)C)NC(=O)[C@@H]1CCCN1C(=O)[C@@H](NC(=O)[C@@H](NC(=O)[C@H](Cc1ccccc1)NC(=O)[C@H](CC(C)C)NC(=O)[C@H](Cc1c[nH]c2ccccc12)NC(=O)[C@H](CC(=O)O)NC(=O)[C@H](C)NC(=O)[C@H](Cc1ccc(O)cc1)NC(=O)[C@H](CCCNC(=N)N)NC(=O)[C@H](C)NC(=O)[C@H](Cc1c[nH]c2ccccc12)NC(=O)[C@H](Cc1ccc(O)cc1)NC(=O)[C@@H](NC(=O)[C@@H]1CCCN1C(=O)[C@H](CC(N)=O)NC(=O)[C@H](CCC(N)=O)NC(=O)[C@H](CCC(=O)O)NC(=O)[C@H](C)NC(=O)[C@H](C)N)[C@@H](C)CC)[C@@H](C)O)[C@@H](C)O)C(C)C)[C@@H](C)O)C(=O)NCC(N)=O)C(C)C	HeLa	MTT	–	40 nM, 72 h, 2 h low pH treatment	–	cell killing	80%
C/C=C(/C)C(=O)O[C@H]1C(C)=C2[C@H]([C@@H]1OC(=O)CCCCCCC)[C@@](C)(OC(C)=O)C[C@H](OC(=O)CCC)[C@@]1(O)[C@H]2OC(=O)[C@@]1(C)O	HEK-293T	RNA-seq GSEA, item: Hallmark interferon gamma response	–	500 nM, 6 h	direction not given	normalized enrichment score	-1.07
Cc1nn(-c2nc3ccc(Cl)c(Cl)c3[nH]2)c(O)c1C1OC(=O)c2ccccc21 (stereo not shown)	RAW-ISG	CCK-8	–	1 µM	–	viability	106% and 102% and 113% and 121% and 99.9%
C[C@]12CC[C@H](O)C[C@H]1CC[C@@H]1[C@@H]2CC[C@]2(C)[C@@H](C3=CC(=O)OC3)[C@@H](O)C[C@]12O	iPSC-derived cardiomyocytes	concentration-response curve, item: MyBP-C protein level	–	24 h	–	EC50	41.5 µM

Structure (SMILES)	target or system	assay	test system	setting	scale	quantity	result
Cc1cc(C(C)(C)c2ccc(O)c(C)c2)ccc1O	HepG2 spheroids	Hoechst flow cytometry	–	0.01 µM, 96 h	–	G2 phase cells	15.1 ± 4.8%
COc1cc(Nc2ncc(F)c(Nc3ccc4c(n3)NC(=O)C(C)(C)O4)n2)cc(OC)c1OC	kainate receptor	binding	–	–	–	IC50	> 10 µM
CC(=O)Nc1ccc(C=Cc2ccc(N=C=S)cc2S(=O)(=O)O)c(S(=O)(=O)O)c1	human neutrophils	sulfate/chloride exchange, noncompetitive inhibitor	–	–	–	Ki	~50 µM
O=S(=O)(c1ccc(O)cc1)c1ccc(O)cc1	HepG2 spheroids	planimetry	–	10 µM, 0 to 96 h	relative to: mean area of 72 h spheroids	spheroid area increase	196%
COC(=O)/C(C)=C\C[C@@]12OC(C)(C)[C@@H]3C[C@@H](C=C4C(=O)c5c(O)c6c(c(CC=C(C)C)c5O[C@]431)O[C@](C)(CCC=C(C)C)C=C6)C2=O	iPSC-derived cardiomyocytes	concentration-response curve, item: MyBP-C/MYH ratio	–	24 h	–	EC50	8.4 µM
COc1ccc(OC)c(N2C(=O)NC(=O)/C(=C\c3ccc([N+](=O)[O-])s3)C2=O)c1	C127 LDR GFP reporter cells	silenced GFP reporter induction, activator, high-content imaging	–	independent samples, two-run mean	–	maximum efficacy	20%
C[C@@H]1O[C@@H](O[C@H]2C[C@@H](O)[C@]3(CO)[C@H]4[C@H](O)C[C@]5(C)[C@@H](C6=CC(=O)OC6)CC[C@]5(O)[C@@H]4CC[C@]3(O)C2)[C@H](O)[C@H](O)[C@H]1O	BT-12	cell viability, MTT	–	10 µM, 72 h	–	inhibition	94.9%
COc1c(CCC[P+](c2ccccc2)(c2ccccc2)c2ccccc2)cc2c(c1OC)OCO2.[I-]	NCI-H226	SRB	–	–	–	LC50	> -4 log M
CC(C)CN1CCc2ccc(Br)cc21	Plasmodium falciparum	–	W2	–	–	IC50	2 µM
Nc1ncnc2c1ncn2[C@@H]1O[C@@H]2COP(=O)(O)O[C@H]3[C@@H](O)[C@H](n4cnc5c(=O)[nH]cnc54)O[C@@H]3COP(=O)(O)O[C@H]2[C@H]1O	HFF-1	RNA sequencing Reactome analysis, item: Reactome R-HSA-449147 signaling by interleukins	–	together with: West Nile virus infection	relative to: West Nile virus infected cells, upregulated pathway	pathway fold enrichment	2.53
COc1ccc([C@H]2c3[nH]c4ccc(Cl)cc4c3CCN2C(=O)Oc2ccc(Cl)cc2)cc1	human dermal fibroblasts with PBMC	cytokine secretion, item: MCP-1	–	0.1 µM, 48 h	–	inhibition	33%
Cc1cnc2ccc3c(nc(N)n3C)c2n1	BALB/c 3T3	colony forming efficiency	–	5 µM	–	colony number	86 colonies per plate and 101 colonies per plate and 91 colonies per plate
COc1ccc(CCN(C)CCCC(C#N)(c2ccc(OC)c(OC)c2)C(C)C)cc1OC (stereo not shown)	Plasmodium falciparum	–	W2	–	–	IC50	1 µM
N.N.[Cl][Pt][Cl]	PPC-1	viability, MTT	–	72 h	–	EC50	27.8 ± 11.1 µM
CC[C@H](C)[C@@H]1NC(=O)[C@@H]2CCCN2C(=O)[C@H](CC(C)C)NC(=O)[C@H](CC(C)C)NC(=O)CNC(=O)[C@@H](NC(=O)[C@@H](NC(=O)[C@H](CC(=O)O)NC(=O)CNC(=O)[C@@H](NC(=O)[C@H](C)NC(=O)CNC(=O)[C@H](CCCCN)NC(=O)[C@H](CC(C)C)NC(=O)[C@H](CC(C)C)NC(=O)[C@H](CCCCN)NC(=O)CNC(=O)[C@@H](NC(=O)[C@@H](N)CC(C)C)C(C)C)C(C)C)C(C)C)CSSC[C@@H](C(=O)O)NC1=O	–	RNA-seq, item: Filip1l	mouse, traumatic brain injury model, frontal cortex and hippocampus	dose not given	relative to: TBI alone	log2 fold change	-1.04
CCC(=O)N(CCC#N)c1ccc2c(c1)OCCN2CC(=O)NCC(=O)Nc1ccc(C(=O)NCCCCCCC(=O)NO)cc1.O=C(O)C(F)(F)F	MM1.S	annexin V/PI flow cytometry	–	10 µM, 48 h	–	apoptotic cells	no effect
COc1ccc2c(c1)[nH]c1c(C)nccc12	DU-145	bisulfite pyrosequencing, item: RASSF1A promoter CpG site 16	–	concentration not given	relative to: vehicle	methylation reduction	2.34%
CO[C@H]1/C=C\C=C(/C)C(=O)NC2=CC(=O)C(NCCN(C)C)=C(C[C@@H](C)C[C@H](OC)[C@H](O)[C@@H](C)/C=C(\C)[C@@H]1OC(N)=O)C2=O	iPSC-derived cardiomyocytes	concentration-response fit	–	concentration not given	relative to: vehicle	fitted bottom MyBP-C level	16%
CO[C@H]1C[C@@H]2CC[C@@H](C)[C@@](O)(O2)C(=O)C(=O)N2CCCC[C@H]2C(=O)O[C@H]([C@H](C)C[C@@H]2CC[C@@H](OC(=O)NCCOCCOCCOCCOCCOCCOCCOCCOCCC(=O)N3CCc4cc(Cn5nc(-c6ccc7oc(N)nc7c6)c6c(N)ncnc65)ccc4C3)[C@H](OC)C2)C[C@@H](O)[C@H](C)/C=C(\C)[C@@H](O)[C@@H](OC)C(=O)[C@H](C)C[C@H](C)/C=C/C=C/C=C/1C	–	–	advanced solid tumour patients	intravenous, dose not given, grade ≥3, all doses	–	incidence of TRAE	36.8%
COc1cccc2c1C(=O)c1c(O)c3c(c(O)c1C2=O)C[C@@](O)(C(=O)CO)C[C@@H]3O[C@H]1C[C@H](N)[C@H](O)[C@H](C)O1	SK-OV-3	sulforhodamine B	–	10 µg/mL, 48 h	negative means cell kill	growth percent	-25.5%
COc1c(C)c2c(c(O)c1C/C=C(\C)CCC(=O)O)C(=O)OC2	IGROV-1	cell proliferation	–	–	–	IC50	0.562 µM
